Published values pooled from the literature.
Compare with care: the assays were run in different laboratories. Values joined by “and” are separate records of one study, mostly repeats; a detail may differ. ± gives the spread as reported.

`C[C@H]1C[C@@H](N2C(=N)N[C@](C)(c3cccc(NC(=O)c4cccc(C#N)c4)c3Cl)CC2=O)CCO1` has a plasma concentration of 928 to 8370 ng/mL (Wistar Han rat male; 1000 mg/kg, 24 h, day 7).
`O=C(N/N=C/c1ccccc1O)c1ccncc1` — result for “plasma level of active form”: “not detected” (male Wistar Han rats, plasma; intravenous, 10 mg/kg, 1 to 300 min).
`CCCC(C(=O)c1ccc(O)c(O)c1)N1CCCC1` (centres unmarked) gave a plasma concentration of 108 ± 14.4 ng/mL (LC-MS/MS; rat, trunk blood plasma; subcutaneous, 4 mg/kg MDPV, 40 min).
The plasma concentration of `C1=Cc2nc1cc1ccc([n-]1)c(C1CC1)c1nc(cc3ccc([n-]3)c2C2CC2)C=C1.CC(=O)[O-].[Mn+3]` is reported as 129 ng/mL and 502 ng/mL (LC-MS/MS; Sprague-Dawley rat, plasma; oral gavage, dose not given, 360 min).
The plasma concentration of `C[C@H]1COCCN1c1nc(NCc2cccnc2C(F)(F)F)c2cccnc2n1` is reported as 139000 ng/mL (conscious rat, plasma; intravenous, 30 mg/kg, 5 min).
The maximum inhibition of `C=CCc1cccc(/C=N/NC(=O)CN2CCN(Cc3ccccc3)CC2)c1O` is reported as 4.27% (human coronavirus OC43; virus-induced cell killing; MRC-5; screen).
For `N=C(N)NCCNC(=O)C1(Nc2ccccc2)CCN(Cc2ccccc2)CC1`, plasma stability read “stable” (rat, plasma; 5 h, room temperature).
`CCCC(C(=O)c1ccc(O)c(OC)c1)N1CCCC1` (centres unmarked) gave a plasma concentration of 99 ± 12.5 ng/mL (LC-MS/MS; rat, trunk blood plasma; subcutaneous, 4 mg/kg MDPV, 40 min).
For `C1=Cc2nc1cc1ccc([n-]1)c(-c1ccccc1)c1nc(cc3ccc([n-]3)c2-c2ccccc2)C=C1.CC(=O)[O-].[Mn+3]`, the plasma concentration was 20 ng/mL (LC-MS/MS; Sprague-Dawley rat, plasma; oral gavage, dose not given, 30 min, individual rat Rat1).
The plasma concentration of `CCCC(C(=O)c1ccc2c(c1)OCO2)N1CCCC1.Cl` (racemic) is reported as 130 ng/mL (LC-MS/MS; rat, trunk blood plasma; subcutaneous, 1 mg/kg, 40 min).
The maximum inhibition of `Nc1ccn([C@@H]2O[C@H](CO)[C@@H](O)C2(F)F)c(=O)n1` is reported as 47.8% (human coronavirus OC43; virus-induced cell killing; MRC-5; screen).

A few entries again:
For `C1=Cc2nc1cc1ccc([n-]1)c(-c1ccccc1)c1nc(cc3ccc([n-]3)c2-c2ccccc2)C=C1.CC(=O)[O-].[Mn+3]`, the plasma concentration was 20 ng/mL (LC-MS/MS; Sprague-Dawley rat, plasma; oral gavage, dose not given, 30 min, individual rat Rat1).
